Measured values gathered from unrelated publications.
Parts stem from different laboratories: compare values within a part only.

Series 1 — technique: RNA Bind-n-Seq; form: RNA; medium: in vitro; tested at: 365 nM; reference: no-protein control; reading: higher = stronger binding
Target: RNA binding protein fox-1 homolog 2, RRM domain, GST-SBP tag (RBFOX2, Homo sapiens, UniProt O43251-10, residues 100-194)
Notes: natural RNA segment, single round, ends assumed
All sequences stand within: GGGAGUUCUACAGUCCGACGAUC … UGGAAUUCUCGGGUGCCAA
Residues (chain): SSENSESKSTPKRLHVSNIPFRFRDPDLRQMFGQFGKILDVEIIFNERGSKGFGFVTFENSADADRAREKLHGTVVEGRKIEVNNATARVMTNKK
Oligonucleotide	RBNS enrichment (R)
ACCUGUCUGUAUUAUUCUGACCCAGGGGAGUCAGUCACUGUGGGGCCUCCUUCCUCUGCUGGUAUACUCAUGGACUCAUUCACUGCCAAGAUGACCAAAUACUCUACCAC	0.579
CCUCCCAUUCCUCUGGUCCCUGCCUUGGUCCCUUGCCUGGGAAGAGGGCGAGGAGGCCAGUGGUGGGGACGCAGAGGGUCCUCAGAGCAGGAGUGACAAGGGAGGAAAGA	0.581
GGCUUCGCAUCAAAAGCCUGACGUUCCUGUCCCUCUUAUAGGGGGAGCUUUGGACACAGGACCAGUUUGAUAAAGGGCCAGGUAAGGGUUUCCACUCUGCACAUUGUAGA	0.562
UCUACCACAUGCAAGUCUGUGUCCACAGAGCCGUUCUUGAACUCCGUAUCAGUACAGCUUUCACCUGGGUUGUCCGUUGUAGUGUCUGGGAAGCUUGAGGGUUCCCUUCU	0.532
UUUUGGUUCCACUUGGACAACAAACAGUAUUUGCAGAGUGAUUUCAGGAGAGAGCAGGUCUGAGGAAUAUGCAAAACUGUAGUUACUGUGUGGGCCAUUGACUGCCUUGA	0.738
GUCUAUAAACAGGUGACACUGGCUGCAGCAAAAAGCCAUUCGAUCCACACAAAUUGAUCUUCUAUCAUCUUGGAAUCUGAAUUGCAGGGAGGAGCAGCAUGUAAGACGAC	11.4
AAGACCUUUCCCAUAGGAGUUCAAGAACUGGACUGUUGUGAAGAAGUCAGCUCUUAUCUCAGGUUGGUAUCUUUCAUCAAAUCCAGAUGCAAAGCAGCACUAGUGAAAAU	0.417
CAUGUUGCUUUCAGAGAGGUCAACAUUAAAAUACUGAGACAGGACAGAAUGUGUUCUUUGUCCUUUUCCAGCCCUGCUCUUCUCUGGGAAGAUACAGGAGUCUGCCACCU	0.363
UUUAGUUUACAAAAGUACUGGAAACUAAAUCAUAUUUCUUCCCUCCAAAUUUCACCCAUUCCUGACUUUGAAUCAAUUGCAGAAAUGCAGGUGUGUUACUUUGUUGAUCA	0.278
UACUGAAGGACAAUCCUGAAGUGCUGCAGCGCAUAGUGAAUGCCUCUUGGUGUUUUCACGUUCGUCUGUGAGGACUCAUAGACUUACAGAAUGAUGCCGAAUGGAAUGUU	0.977
UCCUCCUUACUCUAAGCUAAAUCUAGGUGAGGUUUCCCCUUAGGGAGCCCAGCUAUUUACAAAGUACACACGAGGGAGCAGGCUGGUCAUUGACUUCGGGCUGGACCGUU	0.206
UCAUUGUCUUUUCCUGUGUAAAUGUUAAAUGACAAUACCAUCGGUGAAGGCCCUCCACAGUGGACAGAGCAACUUCCUUUCCAGCCUCUGCUGGUAGCAUGCUGCAGCUU	3.76

Series 2 — technique: universal PBM; form: double-stranded DNA, one strand shown; medium: in vitro; tested at: not given; reading: higher = stronger binding
Target: Sal-like protein 4, full length isoform B (SALL4, Homo sapiens, UniProt Q9UJQ4-2, residues 1-616)
Notes: 8-mer, flanks averaged, mean of replicates
Oligonucleotide	E-score
AGGTACCG	-0.255
CGCCTGAC	-0.142
CGACATTC	-0.0489
AAGGATCC	-0.194
GAACCATA	0.0969
GAGCAGCA	-0.0873
AATTGTGA	0.278
AATCGGGC	-0.152
TACTAACA	0.203
CAATAGCG	-0.166
GCCATTGA	0.111
AGTCGCAT	-0.00844
ATTTAATA	0.412
AATCCCCG	-0.0766
AACTAAAT	0.154
AAGTTTCG	-0.0494
CAGTATTA	0.155
GACGGAAA	0.0236
CCGTTATA	0.138
GGATCTGA	-0.118
AGCATAGA	0.0799
GGCGTATA	0.0163
AGTTACCG	0.00427

Series 3 — technique: RNA Bind-n-Seq; form: RNA; medium: in vitro; tested at: 1 µM; notes: whole 134-nt RNA, ends assumed; with: 150 mM KCl; reference: input library; reading: higher = stronger binding
Target: Ras GTPase-activating protein-binding protein 1, RRM domain (G3BP1, Homo sapiens, UniProt Q13283)
Sequence of UniProt Q13283 (whole entry, looked up): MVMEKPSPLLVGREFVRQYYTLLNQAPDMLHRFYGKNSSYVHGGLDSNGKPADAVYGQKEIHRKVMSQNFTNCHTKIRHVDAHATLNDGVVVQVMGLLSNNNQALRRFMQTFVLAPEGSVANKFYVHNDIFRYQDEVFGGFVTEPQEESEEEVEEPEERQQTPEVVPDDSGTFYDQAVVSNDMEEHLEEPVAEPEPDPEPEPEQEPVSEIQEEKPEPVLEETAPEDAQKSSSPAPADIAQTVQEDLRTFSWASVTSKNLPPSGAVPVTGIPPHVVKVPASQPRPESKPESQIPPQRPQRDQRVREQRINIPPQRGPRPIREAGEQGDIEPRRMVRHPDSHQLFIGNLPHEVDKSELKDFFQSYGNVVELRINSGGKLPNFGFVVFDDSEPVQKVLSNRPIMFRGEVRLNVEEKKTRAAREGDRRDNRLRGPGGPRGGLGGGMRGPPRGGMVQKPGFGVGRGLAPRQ
All sequences stand within: GGGAGUUCUACAGUCCGACGAUC … UGGAAUUCUCGGGUGUCAAGG
Oligonucleotide	log2 enrichment
UCCUGUGCUACACAUCGUAUGUACCGAAUCGGGGAAAAAAAGGGGAGGGGAAAAAGGGGAAAGUAUUAUGUUACGCCGUUCGGAUCUGCA	0.588
AAGUCCUGUGCUACACAUCGUAUGUACCGAAUCGGGGAGGGGAGGGGUUUUUGGGGAAAGUAUUAUGUUACGCCGUUCGGAUCUGCACUU	1.01
UGCUCUUCACCAAGGAGGACGAGCCUGGCCGCUGCGACGUCCUGAGGAACCCCCUCUACCUCCAGAGUGUGAAGCUGCAGGAAGGUAAGC	-0.388
GCAGGAAGUAAAAACAAAUGGAAAUGCUUCGGAUAGUGGCAGGGGUGGGGGUUGCUAAGAAAAGGGUGGGAUGGGAGUGGGUAAAGAGUU	1.06
CUAGAGAGCUGUAGUACACAUGGAUGAACGACGAGAAGAACAAAUUGUACAGUUACUGAAUUCUGUUCAAGCGAAGAAUGAUAAAGAGUC	0.205
UGGGAGGUGGAUUUUGUUUAUUUUUUUAGCUCAUUUCCAGGGGUGGGAAUUUUUUUUUAAUAUGUGACAUGAAUAAAGUUGUUUUUGAAA	2.15
CUGUGCUACACAUCGUAUGUACCGAAUCGGAAAAAAAGGAAAAAAAGGGGAAAAAAAGGGGAAAGUAUUAUGUUACGCCGUUCGGAUCUG	0.0634
CAAGUCCUGUGCUACACAUCGUAUGUACCGAAUCGGAAAGGGAAAGGGGAAAGGGAAAGUAUUAUGUUACGCCGUUCGGAUCUGCACUUC	-0.0668
GGACAAGAAUCCUUCAAGAAACAGGAAAAAACUCCUAAAACACCAAAAGGACCUAGUUCUGUAGAAGACAUUAAAGCAAAAAUGCAAGCA	-0.00455
AGUCCUGUGCUACACAUCGUAUGUACCGAAUCGGGGCCCCGGGGCCCCGGGCCCCGGAAAGUAUUAUGUUACGCCGUUCGGAUCUGCACU	0.98

Series 4 — technique: protein binding microarray; form: double-stranded DNA, one strand shown; medium: in vitro; tested at: not given; reference: not given; reading: higher = stronger binding
Target: Histone acetyltransferase KAT6A, winged helix 1, GST fusion (KAT6A, Homo sapiens, UniProt Q92794, residues 1-85)
Notes: 8-mer, flanks averaged, mean of 2 arrays, mostly near background
Target sequence (chain): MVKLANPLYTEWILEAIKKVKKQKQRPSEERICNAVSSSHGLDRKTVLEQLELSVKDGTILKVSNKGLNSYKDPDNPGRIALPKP
Oligonucleotide	E-score
CTAGCGTA	0.2
GTGGTTCA	-0.0609
AAGGGAAA	-0.207
GGCTATAA	0.0049
ACGGTCAC	0.12
ATGGCAAT	-0.163
CACGTTAG	-0.16
CCTTCGCC	0.134
CACCCCCG	0.118
CACAACCA	-0.0665
AAACCGAG	0.0166
CAGCCGAG	-0.051
CGGGGAGC	0.261
CACAGCAG	-0.203
GGGAAAAA	0.0209
GCAACGGC	0.334
ACTCTCAT	-0.147
ATCTGGTC	-0.203
GGCGTCTA	0.138
AGTCAGCC	-0.0125
GCCAATAA	-0.182
ACGGCACG	0.323
ATGTCCTC	-0.13
CGATGCCG	0.37
GGTAAACA	0.0203

Excerpt of the above (series 1):
Oligonucleotide	RBNS enrichment (R)
GGCUUCGCAUCAAAAGCCUGACGUUCCUGUCCCUCUUAUAGGGGGAGCUUUGGACACAGGACCAGUUUGAUAAAGGGCCAGGUAAGGGUUUCCACUCUGCACAUUGUAGA	0.562
UCUACCACAUGCAAGUCUGUGUCCACAGAGCCGUUCUUGAACUCCGUAUCAGUACAGCUUUCACCUGGGUUGUCCGUUGUAGUGUCUGGGAAGCUUGAGGGUUCCCUUCU	0.532
UUUUGGUUCCACUUGGACAACAAACAGUAUUUGCAGAGUGAUUUCAGGAGAGAGCAGGUCUGAGGAAUAUGCAAAACUGUAGUUACUGUGUGGGCCAUUGACUGCCUUGA	0.738
GUCUAUAAACAGGUGACACUGGCUGCAGCAAAAAGCCAUUCGAUCCACACAAAUUGAUCUUCUAUCAUCUUGGAAUCUGAAUUGCAGGGAGGAGCAGCAUGUAAGACGAC	11.4
AAGACCUUUCCCAUAGGAGUUCAAGAACUGGACUGUUGUGAAGAAGUCAGCUCUUAUCUCAGGUUGGUAUCUUUCAUCAAAUCCAGAUGCAAAGCAGCACUAGUGAAAAU	0.417
CAUGUUGCUUUCAGAGAGGUCAACAUUAAAAUACUGAGACAGGACAGAAUGUGUUCUUUGUCCUUUUCCAGCCCUGCUCUUCUCUGGGAAGAUACAGGAGUCUGCCACCU	0.363
UUUAGUUUACAAAAGUACUGGAAACUAAAUCAUAUUUCUUCCCUCCAAAUUUCACCCAUUCCUGACUUUGAAUCAAUUGCAGAAAUGCAGGUGUGUUACUUUGUUGAUCA	0.278
UACUGAAGGACAAUCCUGAAGUGCUGCAGCGCAUAGUGAAUGCCUCUUGGUGUUUUCACGUUCGUCUGUGAGGACUCAUAGACUUACAGAAUGAUGCCGAAUGGAAUGUU	0.977
